Experimental data from different studies.
Each numbered part is a random draw from the data of one study; scales do not carry over between parts.

Series 1
Target: Histone acetyltransferase KAT6A, winged helix 1, GST fusion (KAT6A, Homo sapiens, UniProt Q92794, residues 1-85)
Technique: protein binding microarray
Form: double-stranded DNA, one strand shown
Matrix: in vitro
Tested at: not given
Setting: 8-mer, flanks averaged, mean of 2 arrays, mostly near background
Relative to: not given
Direction: higher = stronger binding
Residues (chain): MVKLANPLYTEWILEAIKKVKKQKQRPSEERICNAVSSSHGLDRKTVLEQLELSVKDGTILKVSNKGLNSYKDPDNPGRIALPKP
`CTTTAATA` has an E-score of 0.0244.
For `CTGCCTAC`, the E-score was -0.0147.
`GGGGCGAC` gave an E-score of 0.0858.
The E-score of `GCCTGCGC` is reported as 0.31.
With `TGACGGCA` the E-score was 0.342.
The E-score of `CAATCAGG` is reported as -0.161.

Series 2
Target: Interferon regulatory factor 7, full length, phosphomimetic (IRF7, Homo sapiens, UniProt Q92985, residues 1-503, S101K/S471D/S472D/S475D/S476D/S477D/S483D/S484D/S487D)
Technique: protein-binding microarray
Form: double-stranded DNA, one strand shown
Matrix: in vitro
Tested at: 250 nM
Setting: 60-bp whole probe
With: salmon DNA 0.4 mg/ml
Relative to: random background probes
Direction: higher = stronger binding
Residues (chain): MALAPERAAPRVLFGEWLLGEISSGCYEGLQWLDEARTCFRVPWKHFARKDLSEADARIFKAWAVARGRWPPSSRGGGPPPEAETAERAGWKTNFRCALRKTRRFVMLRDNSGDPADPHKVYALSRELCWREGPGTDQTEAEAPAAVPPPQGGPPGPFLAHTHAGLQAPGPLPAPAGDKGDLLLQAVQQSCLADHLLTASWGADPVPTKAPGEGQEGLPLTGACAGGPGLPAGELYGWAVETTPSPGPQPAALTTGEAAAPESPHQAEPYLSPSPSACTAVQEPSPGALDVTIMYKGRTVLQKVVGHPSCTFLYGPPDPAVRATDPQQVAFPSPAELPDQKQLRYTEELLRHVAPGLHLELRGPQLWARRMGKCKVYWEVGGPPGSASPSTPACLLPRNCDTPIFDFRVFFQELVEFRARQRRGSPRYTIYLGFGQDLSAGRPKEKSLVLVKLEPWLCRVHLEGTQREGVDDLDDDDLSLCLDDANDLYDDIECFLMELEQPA
`GCCTAGCACTTAGATTTTAGTATCGATTAGTGCTAGGTCTTGATTCGCTTGACGCTGCTG` gave a log fluorescence of 1.41 z-score.
With `GCCTAGCACTTAGAACTGAGTTTCTATTAGTGCTAGGTCTTGATTCGCTTGACGCTGCTG` the log fluorescence was 2.65 z-score.
`GCCTAGCACGACGAACTGGGGCTTCGAGACGTGCTAGTCTTGATTCGCTTGACGCTGCTG` has a log fluorescence of -0.645 z-score.

Series 3
Target: RNA binding protein fox-1 homolog 2, RRM domain, GST-SBP tag (RBFOX2, Homo sapiens, UniProt O43251-10, residues 100-194)
Technique: RNA Bind-n-Seq
Form: RNA
Matrix: in vitro
Tested at: 365 nM
Setting: natural RNA segment, single round, ends assumed
Relative to: no-protein control
Direction: higher = stronger binding
Residues (chain): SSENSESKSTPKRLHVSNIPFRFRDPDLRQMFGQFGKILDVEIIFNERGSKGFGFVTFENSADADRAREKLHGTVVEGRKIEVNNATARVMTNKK
`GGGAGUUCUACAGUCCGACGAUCACCAGGAGUCACUGAGCCAAUGACUAUCAGCUGCUGACUAAUCUUCACACUGUAGUUAUUGCUUCAUUUACAGGUCCUCUGUGCUUAAUUGCUGUUUUUGUUGCUGUAGUUGGAAUUCUCGGGUGCCAA`: “RBNS enrichment (R)” 0.551.
Under “RBNS enrichment (R)”, `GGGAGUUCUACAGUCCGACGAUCGUAAGUUAACAGCCAGAGACAGACACUGUGCAGGCAUUGCAAAUAGAUGGAAUUACAGCAAAAUGUGCUCAAUGUAUGUGUCUGCUCACAACACUGGGAGAUGUGUUUGCUGGAAUUCUCGGGUGCCAA` is recorded as 0.566.
For `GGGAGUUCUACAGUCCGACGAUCUAUCGAUAGAGGUAGAAAUGGUUUCCCUCCAAGGUUGGGUCAAUGUGUAAAUUGCUAUUCAACACUUGGAUAUUACCAGUCUGUGGUUUAAUUAUUCCUCCUAGUGAGCUUGGAAUUCUCGGGUGCCAA`, “RBNS enrichment (R)” read 0.245.
`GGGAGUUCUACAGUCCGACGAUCGAAACUUUAAAUUUUUAAAAGGCUUCUAGUUAGCUGCUUUAAAUCUAUCUAUAUAAUGUAGUAUGAUGUAAUGUGGUCUUUUUUUUAGAUUUUGUGCAGUUAAUACUUAAUGGAAUUCUCGGGUGCCAA`: “RBNS enrichment (R)” 1.13.
`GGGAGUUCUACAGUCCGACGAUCGCCCUCUUGCCUGUCAUCCCAACCCUGCUGCUUCUCUGUAAAAGGUUGUUUCUUUACUAGCAGAAAUCAGUCUGCAGGGAGGGGUAGUGCGUGUAUCUCACUGUUUUCCGUGGAAUUCUCGGGUGCCAA` — result for “RBNS enrichment (R)”: 1.04.
`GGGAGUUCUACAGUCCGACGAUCGUCCUUAACUGGAAAGUGACCCUCUUCUACCCCUGGAGUCCAUCUGGACAGAGCCAGCCUGAGGCCCACGGGCAGCUGCCUGUUUGCAUGCCUGGGAAGAGGUCCUCAGUUGGAAUUCUCGGGUGCCAA` — result for “RBNS enrichment (R)”: 2.18.
For `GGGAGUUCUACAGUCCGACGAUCCGUCCUUGCAUUCCGCUGGCUGACCUGUUAGACCUGUCCUUGUGAAUGCCACCGUUUCCUCUAAGACUGGCCAUUAAUGUUUCGUCGGCGGAAGUCGCUCUCCUGGGAGGUGGAAUUCUCGGGUGCCAA`, “RBNS enrichment (R)” read 0.367.

Other studies, line by line
`PhoQ, residues 284 288 289 292 302 303 ASSHFY` gave a fold induction of 10.2 (PhoP, residues 12 14 15 18 19 YHFSH (Escherichia coli, UniProt P23836); Sort-seq, measured: YFP reporter; E. coli; PhoQ-PhoP variant library, with: 10 µM Mg2+; relative to: high Mg2+ state, higher = stronger signaling).

A few entries again (series 3):
`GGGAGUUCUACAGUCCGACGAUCGUCCUUAACUGGAAAGUGACCCUCUUCUACCCCUGGAGUCCAUCUGGACAGAGCCAGCCUGAGGCCCACGGGCAGCUGCCUGUUUGCAUGCCUGGGAAGAGGUCCUCAGUUGGAAUUCUCGGGUGCCAA` — result for “RBNS enrichment (R)”: 2.18.
`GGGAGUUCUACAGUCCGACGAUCACCAGGAGUCACUGAGCCAAUGACUAUCAGCUGCUGACUAAUCUUCACACUGUAGUUAUUGCUUCAUUUACAGGUCCUCUGUGCUUAAUUGCUGUUUUUGUUGCUGUAGUUGGAAUUCUCGGGUGCCAA`: “RBNS enrichment (R)” 0.551.
Under “RBNS enrichment (R)”, `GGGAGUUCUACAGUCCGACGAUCGUAAGUUAACAGCCAGAGACAGACACUGUGCAGGCAUUGCAAAUAGAUGGAAUUACAGCAAAAUGUGCUCAAUGUAUGUGUCUGCUCACAACACUGGGAGAUGUGUUUGCUGGAAUUCUCGGGUGCCAA` is recorded as 0.566.
